Experimental data collected from several papers.
Organism: Escherichia coli

With `CC[C@H](C)[C@H](NC(=O)[C@@H](NC(=O)[C@H](CCCCN)NC(=O)[C@H](CCC(N)=O)NC(=O)[C@@H](NC(=O)[C@H](Cc1c[nH]c2ccccc12)NC(=O)[C@H](CCCCN)NC(=O)[C@H](CCCCN)NC(=O)[C@H](CC(C)C)NC(=O)[C@H](CCCNC(=N)N)NC(=O)[C@H](Cc1ccccc1)NC(=O)[C@@H](N)C(C)C)[C@@H](C)CC)C(C)C)C(N)=O` the MIC was 64 µM (24 h, 37 °C, Mueller-Hinton broth, no additive).
`CC[C@H](C)[C@H](NC(=O)[C@@H](CCCNC(=N)N)NC(=O)[C@H](CCCNC(=N)N)NC(=O)[C@@H]1CCCN1C(=O)[C@@H]1CCCN1C(=O)[C@H](CCCNC(=N)N)NC(=O)[C@@H]1CCCN1C(=O)[C@H](CCCNC(=N)N)NC(=O)[C@@H]1CCCN1C(=O)[C@H](CC(C)C)NC(=O)[C@H](Cc1ccc(O)cc1)NC(=O)[C@H](CCCNC(=N)N)NC(=O)[C@@H]1CCCN1C(=O)[C@H](CCCCN)NC(=O)[C@H](CC(=O)O)NC(=O)[C@@H](N)C(C)C)C(=O)N[C@@H](Cc1ccc(O)cc1)C(=O)N[C@@H](CC(N)=O)C(=O)N[C@H](CCCNC(=N)N)C(N)=O` has an MIC of 16 µg/mL (broth microdilution; ATCC 25922; 18 h, 37 °C, 25% MHB2).
With `CC[C@H](C)[C@H](NC(=O)[C@H](CCCNC(=N)N)NC(=O)[C@@H](NC(=O)[C@@H](NC(=O)[C@H](CCCNC(=N)N)NC(=O)[C@H](CCCCN)NC(=O)[C@H](Cc1ccccc1)NC(=O)[C@H](CCCNC(=N)N)NC(=O)[C@H](CCCCN)NC(=O)[C@@H](NC(=O)[C@@H](N)CCCCN)[C@@H](C)CC)[C@@H](C)CC)C(C)C)C(=O)N[C@@H](CCCCN)C(=O)N[C@@H](Cc1ccccc1)C(=O)N[C@@H](CC(C)C)C(=O)N[C@@H](CCCNC(=N)N)C(=O)N[C@H](C(=O)N[C@H](C(=O)N[C@@H](CCCNC(=N)N)C(=O)N[C@@H](CCCNC(=N)N)C(N)=O)C(C)C)C(C)C` the MIC was 2.5 µg/mL (broth microdilution; 25922).
`CC[C@H](C)[C@H](NC(=O)[C@@H](CCCNC(=N)N)NC(=O)[C@H](CCCNC(=N)N)NC(=O)[C@@H]1CCCN1C(=O)[C@@H]1CCCN1C(=O)[C@H](CCCNC(=N)N)NC(=O)[C@@H]1CCCN1C(=O)[C@H](CCCNC(=N)N)NC(=O)[C@@H]1CCCN1C(=O)[C@H](CC(C)C)NC(=O)[C@H](Cc1c[nH]c2ccccc12)NC(=O)[C@@H]1CCCN1C(=O)[C@@H]1CCCN1C(=O)[C@H](CCCCN)NC(=O)[C@H](CC(=O)O)NC(=O)[C@@H](N)C(C)C)C(=O)N[C@@H](Cc1ccc(O)cc1)C(=O)N[C@@H](CC(N)=O)C(=O)N[C@H](CCCNC(=N)N)C(N)=O` has an MIC of 8 µg/mL (broth microdilution; BW25113; 18 h, 37 °C, 25% MHB2).
For `CC[C@H](C)[C@H](NC(=O)CN)C(=O)NCC(=O)N[C@@H](C)C(=O)N[C@H](C(=O)N[C@@H](CC(C)C)C(=O)N[C@@H](CCCCN)C(=O)N[C@H](C(=O)N[C@@H](CC(C)C)C(=O)N[C@H](C(=O)N[C@H](C(=O)NCC(=O)N[C@@H](CC(C)C)C(=O)N1CCC[C@H]1C(=O)N[C@@H](C)C(=O)N[C@@H](CC(C)C)C(=O)N[C@H](C(=O)N[C@@H](CO)C(=O)N[C@@H](Cc1c[nH]c2ccccc12)C(=O)N[C@H](C(=O)N[C@@H](CCCCN)C(=O)N[C@@H](CCCNC(=N)N)C(=O)N[C@@H](CCCCN)C(=O)N[C@@H](CCCNC(=N)N)C(=O)N[C@@H](CCC(N)=O)C(=O)N[C@@H](CCC(N)=O)C(N)=O)[C@@H](C)CC)[C@@H](C)CC)[C@@H](C)O)[C@@H](C)O)C(C)C)C(C)C`, the MIC was 2 µM (broth microdilution; CCARM 1238 resistant; 18 h, 37 °C).
With `CC(C)C[C@@H]1NC(=O)[C@H](CCCCN)NC(=O)C(N)CCC=CCCCC(C(N)=O)NC(=O)[C@H](CCCCN)NC(=O)[C@H](CC(C)C)NC(=O)[C@H](CCCCN)NC(=O)C2CCCC=CCCC(NC(=O)[C@H](CCCCN)NC1=O)C(=O)N[C@@H](CCCCN)C(=O)N1CCC[C@@H]1C(=O)NCC(=O)N[C@@H](CCCCN)C(=O)N2` (stereo partly drawn) the MIC was 64 µM (broth microdilution; ATCC 25922, Mueller-Hinton broth; 18 h, 37 °C).
With `C#CCO/N=C(\C(=O)N[C@@H]1C(=O)N(OS(=O)(=O)O)C1(C)C)c1nsc(N)n1` the MIC was 16 µg/mL (agar dilution; 08-85, mcr-1).
`CC[C@H](C)[C@H](NC(=O)[C@H](C)NC(=O)[C@@H](NC(=O)[C@H](CC(=O)O)NC(=O)[C@H](CCCCN)NC(=O)[C@H](CO)NC(=O)[C@@H](NC(=O)[C@H](CC(N)=O)NC(=O)[C@H](C)NC(=O)[C@@H](NC(=O)[C@H](CCC(=O)O)NC(=O)[C@H](CCCCN)NC(=O)[C@@H](NC(=O)[C@@H](NC(=O)[C@H](Cc1c[nH]cn1)NC(=O)[C@H](CCCCN)NC(=O)[C@@H](NC(=O)[C@H](CCCCN)NC(=O)[C@H](CCCCN)NC(=O)[C@@H](NC(=O)[C@H](CC(C)C)NC(=O)[C@H](CCCCN)NC(=O)[C@H](CC(N)=O)NC(=O)[C@H](Cc1ccccc1)NC(=O)[C@H](CCCNC(=N)N)NC(=O)[C@H](CCCCN)NC(=O)[C@H](CCCNC(=N)N)NC(=O)[C@H](Cc1ccccc1)NC(=O)CN)C(C)C)C(C)C)[C@@H](C)O)[C@@H](C)CC)[C@@H](C)O)C(C)C)C(C)C)C(=O)N[C@H](C(=O)N[C@@H](C)C(=O)NCC(=O)N[C@@H](CO)C(=O)NCC(=O)N[C@H](C(=O)N[C@@H](C)C(=O)N[C@H](C(=O)NCC(=O)N[C@@H](C)C(=O)N[C@@H](C)C(=O)N[C@@H](CCSC)C(N)=O)C(C)C)C(C)C)C(C)C` gave an MIC of 0.5 µg/mL (ATCC 25922, CAMHB with 10% mouse serum; 150 mM NaCl).
For `CC(C)Oc1c(NC(=O)c2ccc(NC(=O)C(CC(N)=O)NC(=O)c3cc(F)c(N=Nc4c(F)cccc4F)c(F)c3)cc2)ccc(C(=O)NN=Cc2ccc(C(=O)O)cc2)c1O` (stereo not drawn), the MIC was > 6.4 µg/mL (BW25113; dark ground state).
The MIC of `CC(C)C[C@H](NC(=O)[C@H](CCCCN)NC(=O)[C@H](CCCCN)NC(=O)[C@H](Cc1ccccc1)NC(=O)[C@H](CC(C)C)NC(=O)[C@H](CCCCN)NC(=O)[C@H](CCCCN)NC(=O)[C@H](Cc1ccccc1)NC(=O)[C@H](CCCCN)NC(=O)[C@H](CCCCN)NC(=O)[C@H](CCCNC(=N)N)NC(=O)[C@H](Cc1ccccc1)NC(=O)[C@H](CCCNC(=N)N)NC(=O)[C@H](CCCCN)NC(=O)[C@H](Cc1ccccc1)NC(=O)[C@H](CCCNC(=N)N)NC(=O)CN)C(=O)N[C@@H](CO)C(=O)N[C@@H](Cc1c[nH]cn1)C(=O)N[C@@H](Cc1c[nH]cn1)C(=O)N[C@@H](Cc1c[nH]cn1)C(=O)N[C@@H](Cc1c[nH]cn1)C(=O)N[C@@H](Cc1c[nH]cn1)C(=O)O` is reported as 5 µM (broth microdilution; M/14072, Mueller-Hinton broth).
`CC[C@H](C)[C@H](NC(=O)[C@@H](CCCNC(=N)N)NC(=O)[C@H](CCCNC(=N)N)NC(=O)[C@@H]1CCCN1C(=O)[C@@H]1CCCN1C(=O)[C@H](CCCNC(=N)N)NC(=O)[C@@H]1CCCN1C(=O)[C@H](CCCNC(=N)N)NC(=O)[C@@H]1CCCN1C(=O)[C@H](CC(C)C)NC(=O)[C@H](Cc1ccc(O)cc1)NC(=O)[C@@H]1CCCN1C(=O)[C@H](Cc1ccc(O)cc1)NC(=O)[C@H](CCCCN)NC(=O)[C@H](CC(=O)O)NC(=O)[C@@H](N)C(C)C)C(=O)N[C@@H](Cc1ccc(O)cc1)C(=O)N[C@@H](CC(N)=O)C(=O)N[C@H](CCCNC(=N)N)C(N)=O` has an MIC of 16 µg/mL (broth microdilution; ATCC 25922; 18 h, 37 °C, 25% MHB2).
With `CC(C)C[C@@H](NC(=O)[C@H](NC(=O)[C@@H](CCCCN)NC(=O)[C@@H](CCCCN)NC(=O)[C@@H](CC(C)C)NC(=O)[C@@H](Cc1c[nH]c2ccccc12)NC(=O)[C@@H](CCCCN)NC(=O)[C@@H](CC(C)C)NC(=O)[C@@H](CC(C)C)NC(=O)[C@@H](CCCCN)NC(=O)[C@@H](CCCCN)NC(=O)[C@H](N)C(C)C)C(C)C)C(N)=O` the MIC was 8 µM (24 h, 37 °C, Mueller-Hinton broth, no additive).
